Published values collected from several papers.
Each numbered part is a random draw from the data of one study; scales do not carry over between parts. Positions count from the first letter of the parent shown.

Study 1
Target: ABI1, truncated, D143A, DHFR fusion (Arabidopsis thaliana)
Technique: DHFR PCA, deep sequencing
Sample: yeast
Notes: methotrexate growth selection, single substitutions
Together with: (+)-ABA 17 µM
Reference: wild-type fitted maximum
Reading: higher = stronger binding
Starting sequence: PYL1, truncated, DHFR fusion (Arabidopsis thaliana); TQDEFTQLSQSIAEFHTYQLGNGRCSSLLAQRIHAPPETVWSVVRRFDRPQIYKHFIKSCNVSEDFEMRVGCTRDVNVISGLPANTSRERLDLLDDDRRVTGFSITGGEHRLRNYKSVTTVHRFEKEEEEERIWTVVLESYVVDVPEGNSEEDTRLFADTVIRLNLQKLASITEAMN; partner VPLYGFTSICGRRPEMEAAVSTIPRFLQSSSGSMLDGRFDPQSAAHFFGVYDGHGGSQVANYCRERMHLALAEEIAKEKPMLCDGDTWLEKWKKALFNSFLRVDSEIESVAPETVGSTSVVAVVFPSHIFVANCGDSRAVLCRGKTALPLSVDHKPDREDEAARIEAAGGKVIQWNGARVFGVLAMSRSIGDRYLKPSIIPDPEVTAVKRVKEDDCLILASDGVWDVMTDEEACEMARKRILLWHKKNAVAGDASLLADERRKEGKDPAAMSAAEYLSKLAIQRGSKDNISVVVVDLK
For `V136D`, “relative binding score” read 9.31%.
`N149K`: “relative binding score” 7.4%.
For `V44D`, “relative binding score” read -17.5%.
`I52Q` — result for “relative binding score”: 83.8%.
`S117T`: “relative binding score” 3.2%.
For `S80P`, “relative binding score” read 5.58%.
Under “relative binding score”, `A175S` is recorded as 90.8%.
For `Q19G`, “relative binding score” read 70.5%.
Under “relative binding score”, `H16L` is recorded as -2.39%.
`F124G`: “relative binding score” 79.8%.
`T1P`: “relative binding score” 86.5%.
Under “relative binding score”, `D48A` is recorded as 20.5%.
`V43P`: “relative binding score” 0.836%.
For `S42C`, “relative binding score” read 56.4%.
`E14M`: “relative binding score” 67.2%.
`Q7D` — result for “relative binding score”: 79.8%.
`L91F` — result for “relative binding score”: -8.44%.
`L164V` — result for “relative binding score”: 85.9%.
`K168N` — result for “relative binding score”: 97%.
For `R163A`, “relative binding score” read 56.4%.
`P37L`: “relative binding score” 50.7%.
For `R111P`, “relative binding score” read 15.6%.
`S117V`: “relative binding score” -2.05%.
`L93W` — result for “relative binding score”: 53%.
`T173N` — result for “relative binding score”: 14.1%.

Study 2
Target: RING finger protein unkempt homolog, zinc fingers 1-6, GST-SBP tag (UNK, Homo sapiens, UniProt Q9C0B0, residues 30-357)
Sequence of UniProt Q9C0B0 (30-357, looked up): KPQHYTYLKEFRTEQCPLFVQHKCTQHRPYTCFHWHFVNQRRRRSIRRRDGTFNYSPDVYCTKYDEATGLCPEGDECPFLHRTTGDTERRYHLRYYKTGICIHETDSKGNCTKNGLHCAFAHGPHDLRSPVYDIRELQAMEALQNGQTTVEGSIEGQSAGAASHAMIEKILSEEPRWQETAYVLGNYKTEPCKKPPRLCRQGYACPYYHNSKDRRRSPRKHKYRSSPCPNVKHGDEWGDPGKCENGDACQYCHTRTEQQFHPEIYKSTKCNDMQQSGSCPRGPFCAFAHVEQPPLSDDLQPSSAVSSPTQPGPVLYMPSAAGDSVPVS
Technique: RNA Bind-n-Seq
Molecule type: RNA
Sample: in vitro
Concentration: not given
Notes: RNA with constant flanks, ends assumed
Reference: input RNA pool
Reading: higher = stronger binding
Constant ends, left off below: GGGAGUUCUACAGUCCGACGAUC … CAACAGAGGAUUGAGCAUCA
For `UGUGUCAUCCGAUGCUUAGUAAAGAAAAGAGCUCUUAUUGCAGGAGGUGGUGCUCCAGAAACCGAGCUGGCCCUCAGACUGACAGAGUACUCCCGAACACUGAGUGGUAUGGAGUCCUAC`, the bound/input enrichment was 0.16 ratio.
The bound/input enrichment of `CUUGCUUUCUGUAGGAGAAUUGAACAGCACUAUUUUGAAGAUCGUGGUAAAGGCAGGCUGUCACCGAGUUAUGUGUUAGUCUCAGGAGUCUUAACUUUUGAAAUAUGUUUUACUUGAAUG` is reported as 0.308 ratio.
`AGCUUGGAUUCUAAGGCGAAUAUUGUACAUGGUCUGUCAGUCUUGGAAAUCUGUCUUAUAACCGCAAUGAAACAUUUAAAUGACAUAUAUGAAGAGGAGCCCUUUAAUUUUCAAAUGGUG` gave a bound/input enrichment of 0.645 ratio.
`ACCUCCAGGGUGUACUCCAGAGACAGGACUCUCAAACCACGCGGAGUGUCCUUUUACCUGGACCGGACUCUGUGGCUGGCCAAGUCCACCUCCUCAUCCUUUGCAUCAUUUAUAGUUCAA` gave a bound/input enrichment of 0.281 ratio.
The bound/input enrichment of `AUAAAAUGUGUUUUGUGUUCCCAUUACUGCAGUAGGUGCUAGUGAGCAUAAGAUGCAUACAACCGGGCUCCUGCCCUUCCCUGAGUUAGAAUGUGGUUCAGUACAUAUGUUUAGUAUGCA` is reported as 1.54 ratio.
The bound/input enrichment of `UUUAUCCAGGGCGAAGCUUUGGACCCGCAGCAUGUCUGCAACCCAGCCAUUUUCAGGCUAACCGCUCGUCAGCUUGCUAAAAUCCAUGCUAUUCAUGCGCACAAUGGCUGGAUCCCCAAA` is reported as 0.124 ratio.
`AAAUCGUGUGUGUCCAAUAUUGAAAGUGCUUUAUCUACACUCCAGUAUGUAAGCAGUACCGCCGUUUCUUUAGAGAAUAGGUCAGCCAUUGUAAAGUACAAUGCAAGCUUAGUCACUCCA` has a bound/input enrichment of 0.329 ratio.
`AUCUAAACUUAGAUGGAGUUGGUCCAAUGAGGGAACAUCUGGGUUAUGCCUUUUUUAAAGCCGCUUUCCGGAACUGUCAGCAUGUUGUUGUUGAAGUGUGGAGCUGUAACUCUGCGUGGA` has a bound/input enrichment of 0.209 ratio.
With `UGGUCAUUUAUAGCAAUUAGAGUGGGUUGCCCCUCUACUUCUCCCAAGAAGAAAUCCCAAACCGAUUCCUUUCAUGUCAGAUUAUACUGUUCUGAUUUUAUUUUCUAUUAUUUUUACAUA` the bound/input enrichment was 5.79 ratio.
The bound/input enrichment of `UAGUGAACAAUGACCUCAUUUUAUUUUCUAUGUUAGUUAUUUAUUUCAAAAUUUACAUUUCCGUUUAUUUUCGUCUGUAAAGCGUAUGUUUCGCACUGCUCUUUUACUCUGAGGGUUUAA` is reported as 106 ratio.
`UCCAUGUCAGAAGACAAUCGCCCUUUAACUGGACUUGCAGCUGCAAUUGCCGGAGCAAAACUCCGGAAAGUGUCACGGAUGGAGGAUACCUCUUUCCCAAGUGGAGGGAAUGCUAUUGGU` has a bound/input enrichment of 0.123 ratio.

Study 3
Target: Histone acetyltransferase KAT6A, winged helix 1, GST fusion (KAT6A, Homo sapiens, UniProt Q92794, residues 1-85)
Technique: protein binding microarray
Molecule type: double-stranded DNA, one strand shown
Sample: in vitro
Concentration: not given
Notes: 8-mer, flanks averaged, mean of 2 arrays, mostly near background
Reference: not given
Reading: higher = stronger binding
Target sequence (chain): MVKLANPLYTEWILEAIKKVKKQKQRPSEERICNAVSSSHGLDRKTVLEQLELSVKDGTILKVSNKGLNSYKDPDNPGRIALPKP
For `CCTTCGCG`, the E-score was 0.225.
`AACAATAC` has an E-score of -0.00864.
With `ATGATTTA` the E-score was -0.224.
With `GAATGCTC` the E-score was -0.0644.
`GCAAATCA` gave an E-score of -0.0342.
With `CGCAGACA` the E-score was 0.069.
`AGCGAGAG` has an E-score of -0.00424.
`CTTGCGCC` has an E-score of 0.36.
For `CCCCCCTA`, the E-score was -0.117.
`AAGTTACC` gave an E-score of 0.0526.
The E-score of `ACCTGCCC` is reported as -0.0742.
`GAGAATCA` gave an E-score of -0.0733.
For `AATCTATG`, the E-score was -0.195.
With `CACTTGTC` the E-score was -0.142.
For `TACATTGA`, the E-score was -0.0991.
The E-score of `CAGCTGGG` is reported as -0.197.
For `GGCTAAAA`, the E-score was 0.0905.
`CCGTGTCC` has an E-score of 0.221.
`AGGTTTTC` gave an E-score of -0.101.

Study 4
Target: CCND1, cyclin fold, Cln2 fusion (human)
Technique: yeast growth competition, sequencing
Sample: yeast
Notes: strong parent motif
Reference: not given
Reading: higher = stronger binding
Starting sequence: SCAPER docking peptide (human); SNARRSLNFGGST; partner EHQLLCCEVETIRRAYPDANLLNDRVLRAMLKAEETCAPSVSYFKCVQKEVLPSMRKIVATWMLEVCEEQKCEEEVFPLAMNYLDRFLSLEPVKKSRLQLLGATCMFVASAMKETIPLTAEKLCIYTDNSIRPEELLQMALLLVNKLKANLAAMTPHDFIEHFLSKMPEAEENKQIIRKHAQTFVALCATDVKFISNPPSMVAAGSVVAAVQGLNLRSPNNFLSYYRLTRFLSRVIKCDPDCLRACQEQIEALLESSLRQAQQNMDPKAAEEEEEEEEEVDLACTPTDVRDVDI
`L7R`: “normalised enrichment score” -0.123.
`S6D`: “normalised enrichment score” 0.428.
`G11C`: “normalised enrichment score” 1.01.
`N8F` — result for “normalised enrichment score”: 0.269.
`R4I`: “normalised enrichment score” 1.75.
Under “normalised enrichment score”, `R5H` is recorded as 0.435.
`N8G` — result for “normalised enrichment score”: 0.149.
Under “normalised enrichment score”, `L7T` is recorded as 0.338.
For `L7M`, “normalised enrichment score” read 0.454.
For `S6V`, “normalised enrichment score” read 2.43.
`L7Q` — result for “normalised enrichment score”: 0.355.
`R4H`: “normalised enrichment score” 0.0827.
`R5K`: “normalised enrichment score” 0.0356.
`N8A`: “normalised enrichment score” 0.0633.
Under “normalised enrichment score”, `R4D` is recorded as 0.351.
`L7N` — result for “normalised enrichment score”: -0.55.
For `T13E`, “normalised enrichment score” read 1.46.
Under “normalised enrichment score”, `F9A` is recorded as -0.0612.
For `L7P`, “normalised enrichment score” read -0.000774.
Under “normalised enrichment score”, `F9C` is recorded as -0.171.
For `T13S`, “normalised enrichment score” read 1.14.
Under “normalised enrichment score”, `T13N` is recorded as 1.26.
For `S12K`, “normalised enrichment score” read 0.369.
For `A3V`, “normalised enrichment score” read 0.38.
Under “normalised enrichment score”, `T13G` is recorded as 0.792.

Single results of other studies
With `PhoQ, residues 284 288 289 292 302 303 TNASYF` the fold induction was 1.75 (PhoP, residues 12 14 15 18 19 YHFSH (Escherichia coli, UniProt P23836); Sort-seq, item: YFP reporter; E. coli; PhoQ-PhoP variant library, together with: 10 µM Mg2+; reference: high Mg2+ state, higher = stronger signaling).

For quick reference, copied from above (study 4):
For `L7M`, “normalised enrichment score” read 0.454.
`S6D`: “normalised enrichment score” 0.428.
For `T13S`, “normalised enrichment score” read 1.14.
For `S12K`, “normalised enrichment score” read 0.369.
`N8G` — result for “normalised enrichment score”: 0.149.
`G11C`: “normalised enrichment score” 1.01.
Under “normalised enrichment score”, `T13N` is recorded as 1.26.
For `S6V`, “normalised enrichment score” read 2.43.
For `A3V`, “normalised enrichment score” read 0.38.
For `T13E`, “normalised enrichment score” read 1.46.
For `L7P`, “normalised enrichment score” read -0.000774.
`L7Q` — result for “normalised enrichment score”: 0.355.
`R4H`: “normalised enrichment score” 0.0827.
